Published values collected from several papers.
Compare with care: the assays were run in different laboratories. Numbers after ± are the reported error.

| Structure (SMILES) | cell line | assay | setting | IC50 |
| --- | --- | --- | --- | --- |
| COc1cc(N2CCN(C)CC2)ccc1Nc1ncc2c(n1)N(C)c1ccc(C)cc1C(=O)N2CC(F)(F)F | PaTu 8988t | cell growth or viability | 5 days, 3D culture | > 20 µM |
| N#Cc1c(-c2ccc(Cl)cc2)cc(-c2cccc3ccccc23)nc1Nc1ccc(Nc2nc(-c3cccc4ccccc34)cc(-c3ccc(Cl)cc3)c2C#N)cc1 | RKOp27 | cell growth or viability, MTT | 72 h | 0.725 µM |
| C/C1=C\CC[C@@]2(C)O[C@H]2[C@H]2OC(=O)[C@@H](CSC(=S)N3CCCC3)[C@@H]2CC1 | KG-1a | cell growth or viability, MTT | 72 h | 11.7 µM |
| COc1cccc(-c2ccc(Nc3ccc(CN(C)C)cc3)c(OC)c2F)c1 | SNU1 | HTRF, refers to: phospho-Akt | – | 14.5 µM |
| CC(C)c1cccc(C(C)C)c1[N+]#[C][Pd-]([Cl])([Cl])=[C](Nc1cccc(CN[C](NC(C)(C)C)=[Au][Cl])c1)Nc1c(C(C)C)cccc1C(C)C | OVCAR-3 | cell growth or viability | – | 40 µM |
| COC(=O)[C@H]1[C@H]2C[C@H]3O[C@@]4(CCN3C[C@H]2C[C@@H](OC(=O)c2cc(OC)c(OC)c(OC)c2)[C@@H]1OC)C(=O)Nc1cc(OC)ccc14 | SU-DHL-4 | cell growth or viability, trypan blue | 72 h | 61.4 µM |
| CC(C)Cc1ccc(C(C)C(=O)[O][Pt]([NH2])([NH2])([Cl])([Cl])[O]C(=O)CCCc2ccccc2)cc1 (centres unmarked) | PSN1 | cell growth or viability, MTT | 72 h | 0.92 µM |
| CCc1ccc([C@H](C)CC(=O)N[C@@H]2O[C@H](COC(C)=O)[C@@H](OC(C)=O)[C@H](OC(C)=O)[C@H]2OC(C)=O)cc1 | L1210 | cell growth or viability | 48 h | 184 µM |
| CC(C)c1cccc(C(C)C)c1-n1c(Cl)c(Cl)n(-c2c(C(C)C)cccc2C(C)C)c1=[Se].[Cl][Au] | PSN1 | cell growth or viability, MTT | 72 h | 0.9 µM |
| CC(C)(C)c1n[nH]cc1-c1nc2ccc3[nH]ncc3c2c2c1CCCC2 | MV4-11 | cell growth or viability, resazurin | 72 h | 0.484 µM |
| CC(C)(C)c1cc(CN(Cc2ccccn2)Cc2ccccn2)c(O)c(CN(Cc2ccccn2)Cc2ccccn2)c1 | CHO-K1 | cytotoxicity | 72 h | 78 ± 2 µM |
| CC(C)=CCOc1ccc(-c2coc3cc4c(c(O)c3c2=O)C=CC(C)(C)O4)cc1 | MDA-MB-231, Huh-7, KKU100, NHDF cells | cell viability, MTT | 24 h | > 100 µM |
| CC(C)c1cccc(C(C)C)c1-n1c2c([n+](-c3c(C(C)C)cccc3C(C)C)[c]1[Cu-][Cl])-c1cccc3cccc-2c13 | PSN1 | cell growth or viability, MTT | 72 h | 7 µM |
| CCc1ccc([C@H](C)CC(=O)N[C@@H]2O[C@H](CO)[C@@H](O)[C@H](O)[C@H]2O)cc1 | L1210 | cell growth or viability | 48 h | > 250 µM |
| Cc1cn([C@@H]2O[C@H](CO)[C@@H](O)[C@H](F)[C@H]2O)c(=O)[nH]c1=O | L1210 | cell growth or viability | – | > 200 µM |
| CCCCN(CCCC)C(=S)SC[C@@H]1C(=O)O[C@H]2[C@H]1CC/C(C)=C/CC[C@@]1(C)O[C@@H]21 | KG-1a | cell growth or viability, MTT | 72 h | 13.5 µM |
| COc1ccc(-c2cc(=O)c3c(O)cc(O[C@@H]4O[C@H](CO)[C@@H](O)[C@H](O)[C@H]4O)cc3o2)cc1OC | CEM/ADR5000 P-gp overexpressing | cell viability, resazurin reduction | 72 h | 18.7 µM |
| CCC(C(=O)O)C1CCC(C)C(C(C)C(O)C(C)C(=O)C(CC)C2OC3(C=CC(NCc4cn(CCOCCOCCOC)nn4)C4(CCC(C)(C5CCC(O)(CC)C(C)O5)O4)O3)C(C)CC2C)O1 (centres unmarked) | HMLER CD24low/CD44high | cell proliferation | 72 h | 10.8 ± 0.9 µM |
| N#CCOc1ccc(-c2ccc3[nH]c4ncc(/C=C/c5ccccc5)cc4c3c2)cc1 | parental Ba/F3 (IL-3 dependent) | cell proliferation, [3H]-thymidine incorporation | – | > 10 µM |
| [NH2][Pt]1([NH2])([Cl])([O]C(=O)C(F)(F)F)[O]C(=O)C2(CC(=O)C2)C(=O)[O]1 | BGC803 | cell growth or viability, MTT | – | 14.1 µM |
| CC(C)c1cccc(C(C)C)c1[N+]#[C][Pd-]([Cl])([Cl])=[C](Nc1ccc(CN[C](Nc2c(C(C)C)cccc2C(C)C)=[Au][Cl])cc1)Nc1c(C(C)C)cccc1C(C)C | OVCAR-3 | cell growth or viability | – | > 100 µM |

| Structure (SMILES) | cell line | assay | setting | IC50 |
| --- | --- | --- | --- | --- |
| C=C1CC(OC(=O)C(C)(O)CCl)C2C(=C)C(=O)OC2C2C1CC(O)C2(O)CCl (centres unmarked) | HEKa | cell growth or viability | – | 0.5 µg/mL |
| C=C(C)C(O)COc1c2occc2cc2ccc(=O)oc12 (centres unmarked) | L5178Y | cell growth or viability, MTT | 72 h | 46.5 µM |
| C=CC(=O)Nc1ccc(F)c(-c2ncnc3[nH]cc(C(=O)OCC)c23)c1 | mouse naive B cells | CD69 expression | together with: anti-IgM | > 1.1 µM |
| CC(=O)Oc1ccccc1C(=O)[O][Pt]([NH2])([NH2])([Cl])([Cl])[O]C(=O)C(Cl)Cl | PSN1 | cell growth or viability, MTT | 72 h | 0.06 µM |
| CC(C)c1cccc(C(C)C)c1-n1ccn(-c2c(C(C)C)cccc2C(C)C)c1=[Se].[Cl][Ag] | LoVo-OXP (oxaliplatin-resistant) | MTT | 72 h | 3.6 ± 0.6 µM |
| Cc1cc(C)c([N+]#[C][Pd-2]([Cl])([Cl])[C]#[N+]c2c(C)cc(C)cc2C)c(C)c1 | OVCAR-3 | cell growth or viability | – | > 100 µM |
| CC(C)c1cccc(C(C)C)c1N1CCN(c2c(C(C)C)cccc2C(C)C)C1=[Se].[Cl][Au] | LoVo-OXP (oxaliplatin-resistant) | MTT | 72 h | 3.4 ± 0.5 µM |
| Nc1ncnc2c1ncn2[C@@H]1O[C@H](CSSc2ccccn2)[C@@H](O)[C@H](F)[C@H]1O | L1210 | cell growth or viability | – | 238 µM |
| COC1CCC(Nc2nc(-c3nccn3C)nc3sc(-c4ccn(C)n4)c(-c4ccccc4)c23)C1 (centres unmarked) | NCI-H1975 (KRAS wild type) | Western blot, refers to: phospho-MEK and phospho-ERK1/2 | 6 h, together with: EGF 15 min | ~5 µM |
| CCN(CC)CCCOc1ccc(-c2ccc3[nH]c4ncc(/C=C/c5ccccc5)cc4c3c2)cc1 | parental Ba/F3 (IL-3 dependent) | cell proliferation, [3H]-thymidine incorporation | – | 1.3 µM |
| N=C(N)NCCC[C@@H]1NC(=O)[C@H](CCCCN)NC(=O)[C@@H](Cc2ccccc2)NC(=O)[C@H](CC(=O)O)NC(=O)CNC1=O | A2780 and OVCAR-3 | cell growth | – | 4 to 7 µM |
| COc1ccc2cc([C@H](C)C(=O)[O][Pt]([NH2])([NH2])([Cl])([Cl])[O]C(=O)[C@@H](C)c3ccc4cc(OC)ccc4c3)ccc2c1 | LO-2 normal liver | cell growth, MTT | 48 h | 0.09 ± 0.01 µM |
| Cl.[Cl][Ru-]1[S+]=C(N2CCCC2)N[N+]1=Cc1ccc(N(c2ccc(-c3ccsc3)cc2)c2ccc(-c3ccsc3)cc2)cc1.c1ccccc1 | HeLa S3 | cytotoxicity, MTT | 24 h | 85.6 ± 4.2 µM |
| Cc1c(C)n(-c2c(C(C)C)cccc2C(C)C)c(=[Se])n1-c1c(C(C)C)cccc1C(C)C.[Cl][Ag] | PSN1 | cell growth or viability, MTT | 72 h | 0.3 µM |
| CC1CCC(NC(=O)N(C)c2cnc3ccc(-c4ccc(OCCCCCC(=O)NO)nc4)cc3n2)CC1 (centres unmarked) | Tera-1 | cell growth, MTT | 48 h | 0.25 µM |
| O=C1C=C2CC[C@@H](NC(=O)OCc3ccccc3)CC2C(=O)C1 (some centres unmarked) | rat Synovial cell | cell growth or viability, CCK-8 | 48 h | 2.68 µM |
| Cc1c(O)c(-c2nc(-c3ccccc3)c(-c3ccccc3)[nH]2)cc(-c2nc(-c3ccccc3)c(-c3ccccc3)[nH]2)c1O | human foreskin fibroblasts HFF | cell viability, colorimetric | 72 h | 257 µg/mL |
| O=C(O)c1ccc(/C=C2\Oc3cc(O)ccc3C2=O)cc1 | PC-9 | cell growth or viability, MTT | 72 h | 32.4 µM |
| CNC(=O)C1CCN(c2cc(C)c(F)cc2NC(=O)c2ccc(-c3cc(O)ccc3C)c(C)c2)CC1 | A673 | cell growth or viability, ATP luminescence | 72 h | 8.76 µM |
| O=C(NO)c1ccc(Cn2sc3ccccc3c2=O)cc1 | KMS-11 | cell growth or viability, ATP luminescence | 72 h | 2.5 µM |

For quick reference, copied from above:
| Structure (SMILES) | cell line | assay | setting | IC50 |
| --- | --- | --- | --- | --- |
| N#Cc1c(-c2ccc(Cl)cc2)cc(-c2cccc3ccccc23)nc1Nc1ccc(Nc2nc(-c3cccc4ccccc34)cc(-c3ccc(Cl)cc3)c2C#N)cc1 | RKOp27 | cell growth or viability, MTT | 72 h | 0.725 µM |
| C/C1=C\CC[C@@]2(C)O[C@H]2[C@H]2OC(=O)[C@@H](CSC(=S)N3CCCC3)[C@@H]2CC1 | KG-1a | cell growth or viability, MTT | 72 h | 11.7 µM |
| COc1cccc(-c2ccc(Nc3ccc(CN(C)C)cc3)c(OC)c2F)c1 | SNU1 | HTRF, refers to: phospho-Akt | – | 14.5 µM |
| CC(C)c1cccc(C(C)C)c1[N+]#[C][Pd-]([Cl])([Cl])=[C](Nc1cccc(CN[C](NC(C)(C)C)=[Au][Cl])c1)Nc1c(C(C)C)cccc1C(C)C | OVCAR-3 | cell growth or viability | – | 40 µM |
